Experimental data gathered from unrelated publications.
Each line is one published result; not all experiments were run side by side. ± marks the error that the study gave.
Organism: Escherichia coli

CC[C@H](C)[C@H](NC(=O)[C@H](CC(C)C)NC(=O)[C@@H](NC(=O)[C@H](CCCNC(=N)N)NC(=O)[C@H](CCCNC(=N)N)NC(=O)[C@H](CCCNC(=N)N)NC(=O)[C@@H](N)CCCNC(=N)N)[C@@H](C)CC)C(=O)N[C@@H](CCCNC(=N)N)C(=O)N[C@@H](CCCNC(=N)N)C(=O)N[C@H](C(=O)N[C@@H](CC(C)C)C(=O)N[C@@H](CCCNC(=N)N)C(=O)N[C@@H](CC(C)C)C(=O)N[C@@H](CCCNC(=N)N)C(=O)N[C@@H](CO)C(=O)N[C@@H](CO)C(=O)N[C@@H](C)C(=O)N[C@@H](Cc1ccc(O)cc1)C(N)=O)C(C)C  MIC (checkerboard; 24 h, 37 °C, alone, rifampicin plate): 16 µM
O=C(O)CN(CC(=O)O)CC(=O)O  MIC (VIM-2 producer; 32 µg/mL, MIC of meropenem, added: meropenem): 0.25 µg/mL
CC[C@H](C)[C@H](NC(=O)CNC(=O)[C@H](CC(=O)O)NC(=O)[C@H](CCCNC(=N)N)NC(=O)[C@@H](NC(=O)[C@H](CC(N)=O)NC(=O)[C@H](CCCNC(=N)N)NC(=O)CNC(=O)[C@@H](NC(=O)[C@H](CCCCN)NC(=O)[C@H](CCC(=O)O)NC(=O)[C@@H](NC(=O)[C@H](CCCCN)NC(=O)[C@H](CCC(=O)O)NC(=O)[C@H](Cc1ccccc1)NC(=O)[C@@H](NC(=O)[C@H](CCCCN)NC(=O)[C@H](Cc1c[nH]c2ccccc12)NC(=O)[C@@H](N)CCCNC(=N)N)[C@@H](C)CC)[C@@H](C)CC)C(C)C)C(C)C)C(=O)N[C@H](C(=O)N[C@@H](CCCCN)C(=O)N[C@@H](C)C(=O)NCC(=O)N1CCC[C@H]1C(=O)N[C@@H](C)C(=O)N[C@H](C(=O)N[C@@H](C)C(=O)N[C@H](C(=O)N[C@H](C(=O)NCC(=O)N[C@@H](CCC(N)=O)C(=O)N[C@@H](C)C(=O)N[C@@H](C)C(=O)N[C@H](C(=O)N[C@H](C(=O)N[C@H](C(=O)N[C@@H](CCCCN)C(N)=O)C(C)C)C(C)C)[C@@H](C)O)C(C)C)C(C)C)C(C)C)[C@@H](C)CC  MIC (KCTC 1682, Mueller-Hinton broth; 16 h, 37 °C; growth inhibition over 99%): 16 µM
C[C@H]1COc2c(N3CCN(C)CC3)c(F)cc3c(=O)c(C(=O)O)cn1c23  MIC (agar dilution; CDC 1001728 NDM-1): 8 µg/mL
CC[C@H](C)[C@H](NC(=O)[C@H](CC(C)C)NC(=O)[C@H](CCCNC(=N)N)NC(=O)[C@@H](N)CCCNC(=N)N)C(=O)N[C@@H](CCCNC(=N)N)C(=O)N[C@@H](CCCCN)C(=O)N[C@@H](CC(C)C)C(=O)N[C@@H](CCCCN)C(=O)NCC(=O)N[C@@H](CC(C)C)C(=O)N[C@@H](CCCCN)C(=O)N[C@@H](CCCCN)C(=O)N[C@@H](Cc1ccc(O)cc1)C(=O)N[C@@H](CC(C)C)C(=O)N[C@@H](Cc1ccc(O)cc1)C(=O)N[C@@H](Cc1ccccc1)C(=O)N[C@@H](CCCCN)C(=O)N[C@@H](CC(C)C)C(=O)N[C@@H](CCC(N)=O)C(=O)N[C@@H](CC(C)C)C(=O)N[C@@H](CC(C)C)C(=O)N[C@@H](CCCCN)C(=O)N[C@@H](CCCCN)C(N)=O  MIC (broth microdilution; KCTC 1682, Mueller-Hinton broth; 24 h, 37 °C): 4 µM
CC(C)C[C@H](NC(=O)[C@H](Cc1c[nH]c2ccccc12)NC(=O)[C@H](CC(C)C)NC(=O)[C@@H](NC(=O)[C@H](CC(C)C)NC(=O)[C@H](CCCNC(=N)N)NC(=O)[C@@H](N)CCCNC(=N)N)[C@@H](C)O)C(=O)N[C@H](C(=O)N[C@@H](CC(C)C)C(=O)N[C@@H](CCCNC(=N)N)C(=O)N[C@@H](CCCNC(=N)N)C(N)=O)[C@@H](C)O  MIC (UB1005; 24 h, 37 °C): 2 µM
CC1(C)SC2C(NC(=O)C(NC(=O)C3=C(O)C(Cc4ccc(F)cc4)NC3=O)c3ccccc3)C(=O)N2C1C(=O)O (stereo not drawn)  MIC (broth microdilution; Keio mutant JW5195-1; 18 h): 25 µg/mL
CC[C@H](C)[C@H](NC(=O)[C@H](CCCNC(=N)N)NC(=O)[C@H](CCCCN)NC(=O)[C@H](CC(C)C)NC(=O)[C@H](CCCCN)NC(=O)[C@H](CCCCN)NC(=O)CNC(=O)[C@H](Cc1ccccc1)NC(=O)[C@H](CC(N)=O)NC(=O)[C@H](CCCNC(=N)N)NC(=O)[C@@H](N)CC(C)C)C(=O)NCC(=O)N[C@@H](CCCCN)C(=O)N[C@@H](Cc1ccc(O)cc1)C(=O)N[C@H](C(=O)N[C@@H](CCCNC(=N)N)C(=O)N[C@@H](CC(N)=O)C(=O)N[C@H](C(=O)N[C@@H](C)C(=O)N[C@@H](CCC(N)=O)C(=O)N[C@@H](CCCCN)C(=O)N[C@H](C(=O)N[C@H](C(=O)N[C@H](C(=O)N[C@H](C(=O)N[C@@H](C)C(=O)N[C@@H](CCC(N)=O)C(=O)NCC(=O)N[C@@H](C)C(=O)N[C@@H](C)C(=O)NCC(=O)N[C@H](C(=O)N[C@@H](C)C(=O)N[C@@H](CCCCN)C(=O)O)C(C)C)C(C)C)[C@@H](C)O)C(C)C)C(C)C)C(C)C)[C@@H](C)O  MIC (broth microdilution; K88, Mueller-Hinton broth; 37 °C): 1.2 µM
CC1(C)CC[C@]2(C(=O)O)CC[C@]3(C)C(=CC[C@@H]4[C@@]5(C)CC[C@H](O)C(C)(C)[C@@H]5CC[C@]43C)[C@@H]2C1  MIC (BL21 pET28a-TEM-1): 512 µg/mL
CC[C@H](C)[C@H](NC(=O)CNC(=O)[C@H](CC(=O)O)NC(=O)[C@H](CCCNC(=N)N)NC(=O)[C@@H](NC(=O)[C@H](CC(N)=O)NC(=O)[C@H](CCCNC(=N)N)NC(=O)CNC(=O)[C@@H](NC(=O)[C@H](CCCCN)NC(=O)[C@H](CCC(=O)O)NC(=O)[C@@H](NC(=O)[C@H](CCCCN)NC(=O)[C@H](CCCCN)NC(=O)[C@H](Cc1ccccc1)NC(=O)[C@@H](NC(=O)[C@H](CCCCN)NC(=O)[C@H](Cc1c[nH]c2ccccc12)NC(=O)[C@@H](N)CCCNC(=N)N)[C@@H](C)CC)[C@@H](C)CC)C(C)C)C(C)C)C(=O)N[C@H](C(=O)N[C@@H](CCCCN)C(=O)N[C@@H](C)C(=O)NCC(=O)N1CCC[C@H]1C(=O)N[C@@H](C)C(=O)N[C@H](C(=O)N[C@@H](C)C(=O)N[C@H](C(=O)N[C@H](C(=O)NCC(=O)N[C@@H](CCC(N)=O)C(=O)N[C@@H](C)C(=O)N[C@@H](C)C(=O)N[C@H](C(=O)N[C@H](C(=O)N[C@H](C(=O)N[C@@H](CCC(=O)O)C(N)=O)C(C)C)C(C)C)[C@@H](C)O)C(C)C)C(C)C)C(C)C)[C@@H](C)CC  MIC (K1 ATCC 700973, Mueller-Hinton broth; 16 h, 37 °C; growth inhibition over 99%): 2 µM
C[C@@H](O)[C@H]1C(=O)N2C(C(=O)O)=C(S[C@@H]3CN[C@H](C(=O)N(C)C)C3)[C@H](C)[C@H]12  MIC (broth microdilution; DH5α with VIM-2 plasmid; compound alone): 4 µg/mL
CC[C@H](C)[C@H](N)C(=O)N[C@@H](CC(C)C)C(=O)NCC(=O)N[C@H](CCCNC(=N)N)C(=O)N[C@H](C(=O)N[C@@H](Cc1c[nH]c2ccccc12)C(=O)N[C@@H](CCCCN)C(=O)NCC(=O)N[C@H](C(=O)N[C@@H](CCCCN)C(=O)N[C@@H](CC(=O)O)C(=O)N[C@H](C(=O)N[C@@H](CC(C)C)C(N)=O)[C@@H](C)CC)[C@@H](C)CC)[C@@H](C)CC  MIC (broth microdilution; ATCC 25922; added: NaCl 150 mM): 12.5 µM
Cc1ccc2[nH]c3c(c2c1)CCCC3NCCc1ccc(Br)cc1 (stereo not drawn)  MIC (broth microdilution; MB5746 efflux-deficient hyperpermeable): 4 µg/mL
CC[C@H](C)[C@H](NC(=O)[C@H](CCCCN)NC(=O)[C@H](CCC(N)=O)NC(=O)[C@@H](NC(=O)[C@@H](NC(=O)[C@H](CCCCN)NC(=O)[C@@H](N)CCCCN)[C@@H](C)CC)C(C)C)C(=O)N[C@@H](CCCCN)C(=O)N[C@@H](CC(=O)O)C(=O)N[C@@H](Cc1ccccc1)C(=O)N[C@@H](CC(C)C)C(=O)N[C@@H](CCCCN)C(N)=O  MIC (broth microdilution; K12; 16 h, 37 °C): 106 ± 55 µM
CCCCCCCC(=O)N[C@@H](CCN)C(=O)N[C@H](C(=O)N[C@@H](CCN)C(=O)N[C@H]1CCNC(=O)[C@H]([C@@H](C)O)NC(=O)[C@H](CCN)NC(=O)[C@H](CCN)NC(=O)[C@H](Cc2ccccc2)NC(=O)[C@@H](CCc2ccccc2)NC(=O)[C@H](CCN)NC1=O)[C@@H](C)O  MIC (broth microdilution; ATCC 25922, colistin-susceptible): 0.5 to 1 µg/mL
CC(=O)Nc1ccc(/C=N/NC(=O)c2ccc(NC(=O)c3ccc(N4C(=O)C[C@H](NC(=O)c5ccc(NC(=O)c6ccc(C#N)cc6)cc5)C4=O)cc3)c(OC(C)C)c2O)cc1  MIC (BW25113; 18 h, 37 °C, dark-adapted state): 0.04 µg/mL
CC1=C(C(=O)O)N2C(=O)[C@@H](NC(=O)[C@H](N)c3ccccc3)[C@H]2SC1  MIC: 62.5 µg/mL
C[C@@H](O)[C@H]1C(=O)N2C(C(=O)O)=C(SCCN=CN)C[C@H]12  MIC (DH5a clone with KPC-136): 2 µg/mL
CC(C)C[C@@H](NC(=O)CNC(=O)[C@@H](CCCCN)NC(=O)[C@@H](CC(C)C)NC(=O)[C@@H](CCCCN)NC(=O)[C@@H](CCCNC(=N)N)NC(=O)[C@@H](CC(C)C)NC(=O)[C@@H](CC(C)C)NC(=O)[C@@H](CCCNC(=N)N)NC(=O)[C@H](N)CCCNC(=N)N)C(=O)N[C@H](CCCCN)C(=O)N[C@H](CCCCN)C(=O)N[C@H](Cc1ccc(O)cc1)C(=O)N[C@H](CC(C)C)C(=O)N[C@H](Cc1ccc(O)cc1)C(=O)N[C@H](Cc1ccccc1)C(=O)N[C@H](CCCCN)C(=O)N[C@H](CC(C)C)C(=O)N[C@H](CCC(N)=O)C(=O)N[C@H](CC(C)C)C(=O)N[C@H](CC(C)C)C(=O)N[C@H](CCCCN)C(=O)N[C@H](CCCCN)C(N)=O  MIC (KCTC 1682, Mueller-Hinton broth; added: 150 mM NaCl): 8 µM
CC[C@H](C)[C@H](NC(=O)[C@H](CCCCN)NC(=O)[C@H](CCC(=O)O)NC(=O)[C@H](CCCCN)NC(=O)[C@H](CO)NC(=O)[C@H](CCCCN)NC(=O)[C@H](CCCNC(=N)N)NC(=O)[C@H](Cc1ccccc1)NC(=O)[C@H](Cc1ccccc1)NC(=O)[C@H](CC(=O)O)NC(=O)CNC(=O)[C@H](CC(C)C)NC(=O)[C@@H](N)CC(C)C)C(=O)NCC(=O)N[C@@H](CCCCN)C(=O)N[C@@H](CCC(=O)O)C(=O)N[C@@H](Cc1ccccc1)C(=O)N[C@@H](CCCCN)C(=O)N[C@@H](CCCNC(=N)N)C(=O)N[C@H](C(=O)N[C@H](C(=O)N[C@@H](CCC(N)=O)C(=O)N[C@@H](CCCNC(=N)N)C(=O)N[C@H](C(=O)N[C@@H](CCCCN)C(=O)N[C@@H](CC(=O)O)C(=O)N[C@@H](Cc1ccccc1)C(=O)N[C@@H](CC(C)C)C(=O)N[C@@H](CCCNC(=N)N)C(=O)N[C@@H](CC(N)=O)C(=O)N[C@@H](CC(C)C)C(=O)N[C@H](C(=O)N1CCC[C@H]1C(=O)N[C@@H](CCCNC(=N)N)C(=O)N[C@H](C(=O)N[C@@H](CCC(=O)O)C(=O)N[C@@H](CO)C(=O)O)[C@@H](C)O)C(C)C)[C@@H](C)CC)C(C)C)[C@@H](C)CC  MIC (broth dilution; K12 BW25113; 18 h, 37 °C): 4.2 µM
CC(C)CC1NC(=O)C(C(=O)NC(C(=O)NC2C(=O)N3C2SC(C)(C)C3C(=O)O)c2ccccc2)=C1O (stereo not drawn)  MIC (broth microdilution; isolate IU 356 A, KPC-3, VIM-1, TEM; no clavulanic acid): > 200 µg/mL

A few entries again:
CC[C@H](C)[C@H](NC(=O)[C@H](CC(C)C)NC(=O)[C@@H](NC(=O)[C@H](CCCNC(=N)N)NC(=O)[C@H](CCCNC(=N)N)NC(=O)[C@H](CCCNC(=N)N)NC(=O)[C@@H](N)CCCNC(=N)N)[C@@H](C)CC)C(=O)N[C@@H](CCCNC(=N)N)C(=O)N[C@@H](CCCNC(=N)N)C(=O)N[C@H](C(=O)N[C@@H](CC(C)C)C(=O)N[C@@H](CCCNC(=N)N)C(=O)N[C@@H](CC(C)C)C(=O)N[C@@H](CCCNC(=N)N)C(=O)N[C@@H](CO)C(=O)N[C@@H](CO)C(=O)N[C@@H](C)C(=O)N[C@@H](Cc1ccc(O)cc1)C(N)=O)C(C)C  MIC (checkerboard; 24 h, 37 °C, alone, rifampicin plate): 16 µM
Cc1ccc2[nH]c3c(c2c1)CCCC3NCCc1ccc(Br)cc1 (stereo not drawn)  MIC (broth microdilution; MB5746 efflux-deficient hyperpermeable): 4 µg/mL
